Measured values collected from several papers.
Every numbered part comes from another study and shows a few of its results, in no order. “And” joins repeats or separate records; there may be more than shown.
Chain of UniProt Q8TD08 (whole entry, looked up): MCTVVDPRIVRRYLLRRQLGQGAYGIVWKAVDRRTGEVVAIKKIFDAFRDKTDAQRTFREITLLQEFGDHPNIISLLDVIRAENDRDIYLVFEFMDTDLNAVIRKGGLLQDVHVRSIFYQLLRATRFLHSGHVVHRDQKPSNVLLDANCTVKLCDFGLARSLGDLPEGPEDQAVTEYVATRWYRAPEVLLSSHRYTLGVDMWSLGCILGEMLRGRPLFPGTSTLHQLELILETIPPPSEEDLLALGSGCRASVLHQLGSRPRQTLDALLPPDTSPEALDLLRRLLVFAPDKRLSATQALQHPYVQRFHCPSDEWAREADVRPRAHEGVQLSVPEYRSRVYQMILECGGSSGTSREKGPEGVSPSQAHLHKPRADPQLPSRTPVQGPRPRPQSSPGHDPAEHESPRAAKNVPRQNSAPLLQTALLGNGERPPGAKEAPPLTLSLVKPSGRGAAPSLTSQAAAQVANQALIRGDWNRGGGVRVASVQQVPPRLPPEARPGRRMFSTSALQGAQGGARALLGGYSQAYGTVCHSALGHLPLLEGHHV
Chain of UniProt Q9Y2H1 (whole entry, looked up): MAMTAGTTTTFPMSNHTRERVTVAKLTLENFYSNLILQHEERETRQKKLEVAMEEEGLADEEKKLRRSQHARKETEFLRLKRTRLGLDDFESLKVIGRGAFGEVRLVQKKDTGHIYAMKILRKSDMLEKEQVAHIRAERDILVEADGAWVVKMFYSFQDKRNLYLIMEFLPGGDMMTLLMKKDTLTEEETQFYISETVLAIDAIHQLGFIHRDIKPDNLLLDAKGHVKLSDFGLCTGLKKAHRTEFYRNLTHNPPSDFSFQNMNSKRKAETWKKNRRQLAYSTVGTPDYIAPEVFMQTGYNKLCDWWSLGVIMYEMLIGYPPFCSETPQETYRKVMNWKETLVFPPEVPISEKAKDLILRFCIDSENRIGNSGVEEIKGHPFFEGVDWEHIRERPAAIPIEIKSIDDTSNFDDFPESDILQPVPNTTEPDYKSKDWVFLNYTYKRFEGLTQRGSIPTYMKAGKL
Chain of UniProt O75385 (whole entry, looked up): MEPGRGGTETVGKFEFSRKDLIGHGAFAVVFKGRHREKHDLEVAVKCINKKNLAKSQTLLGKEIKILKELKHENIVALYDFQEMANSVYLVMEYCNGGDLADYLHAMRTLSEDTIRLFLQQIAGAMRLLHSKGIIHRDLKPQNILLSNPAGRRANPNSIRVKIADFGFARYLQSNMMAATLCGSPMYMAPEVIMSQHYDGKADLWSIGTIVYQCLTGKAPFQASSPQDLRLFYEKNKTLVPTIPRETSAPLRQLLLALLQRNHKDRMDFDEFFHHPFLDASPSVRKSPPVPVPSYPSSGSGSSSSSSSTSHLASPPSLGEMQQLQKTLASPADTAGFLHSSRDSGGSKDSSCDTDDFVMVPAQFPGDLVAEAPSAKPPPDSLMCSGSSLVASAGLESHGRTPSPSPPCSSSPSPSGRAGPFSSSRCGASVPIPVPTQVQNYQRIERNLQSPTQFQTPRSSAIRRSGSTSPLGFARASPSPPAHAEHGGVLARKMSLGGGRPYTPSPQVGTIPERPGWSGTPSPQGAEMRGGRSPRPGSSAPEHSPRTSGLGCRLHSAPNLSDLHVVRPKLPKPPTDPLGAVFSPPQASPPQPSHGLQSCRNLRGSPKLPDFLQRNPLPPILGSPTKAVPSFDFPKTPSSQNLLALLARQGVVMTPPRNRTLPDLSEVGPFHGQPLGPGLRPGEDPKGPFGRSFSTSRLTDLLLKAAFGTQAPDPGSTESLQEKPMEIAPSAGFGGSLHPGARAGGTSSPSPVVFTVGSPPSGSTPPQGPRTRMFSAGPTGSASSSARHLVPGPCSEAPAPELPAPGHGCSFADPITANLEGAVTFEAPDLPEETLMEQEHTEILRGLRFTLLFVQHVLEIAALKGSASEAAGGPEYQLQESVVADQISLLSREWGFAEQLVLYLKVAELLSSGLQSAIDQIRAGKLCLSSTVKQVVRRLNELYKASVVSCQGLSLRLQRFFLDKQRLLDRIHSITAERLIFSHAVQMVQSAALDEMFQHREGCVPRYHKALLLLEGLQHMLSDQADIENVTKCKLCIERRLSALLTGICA
Chain of UniProt P09619 (whole entry, looked up): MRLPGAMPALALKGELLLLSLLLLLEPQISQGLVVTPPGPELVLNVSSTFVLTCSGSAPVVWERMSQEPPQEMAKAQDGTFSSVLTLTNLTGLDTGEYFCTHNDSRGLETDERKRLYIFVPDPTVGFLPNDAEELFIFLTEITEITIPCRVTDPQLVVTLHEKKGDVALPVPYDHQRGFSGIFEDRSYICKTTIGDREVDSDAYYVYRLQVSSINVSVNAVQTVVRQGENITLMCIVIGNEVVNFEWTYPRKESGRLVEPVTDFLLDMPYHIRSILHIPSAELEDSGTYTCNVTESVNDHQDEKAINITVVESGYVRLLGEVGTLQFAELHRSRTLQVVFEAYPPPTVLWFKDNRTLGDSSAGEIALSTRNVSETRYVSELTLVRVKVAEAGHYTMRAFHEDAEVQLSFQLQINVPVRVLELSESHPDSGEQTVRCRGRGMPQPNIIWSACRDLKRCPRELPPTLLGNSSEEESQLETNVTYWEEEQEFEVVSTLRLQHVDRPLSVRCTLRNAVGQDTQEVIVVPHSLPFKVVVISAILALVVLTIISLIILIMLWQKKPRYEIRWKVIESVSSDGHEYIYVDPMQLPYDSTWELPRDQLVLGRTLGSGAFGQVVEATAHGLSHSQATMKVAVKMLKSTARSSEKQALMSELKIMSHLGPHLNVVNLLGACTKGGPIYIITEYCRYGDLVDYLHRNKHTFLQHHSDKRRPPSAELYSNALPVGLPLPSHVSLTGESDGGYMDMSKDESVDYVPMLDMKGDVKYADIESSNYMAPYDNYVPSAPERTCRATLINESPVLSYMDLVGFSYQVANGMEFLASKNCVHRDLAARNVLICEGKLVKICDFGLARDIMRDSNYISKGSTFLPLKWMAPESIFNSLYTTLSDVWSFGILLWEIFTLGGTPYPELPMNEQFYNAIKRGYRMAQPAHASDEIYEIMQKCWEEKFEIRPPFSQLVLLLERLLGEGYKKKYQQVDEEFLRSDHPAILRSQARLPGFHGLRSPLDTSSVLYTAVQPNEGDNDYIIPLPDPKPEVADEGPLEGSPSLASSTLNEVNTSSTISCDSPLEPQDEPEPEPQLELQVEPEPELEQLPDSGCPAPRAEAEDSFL
Chain of UniProt Q8IW41 (whole entry, looked up): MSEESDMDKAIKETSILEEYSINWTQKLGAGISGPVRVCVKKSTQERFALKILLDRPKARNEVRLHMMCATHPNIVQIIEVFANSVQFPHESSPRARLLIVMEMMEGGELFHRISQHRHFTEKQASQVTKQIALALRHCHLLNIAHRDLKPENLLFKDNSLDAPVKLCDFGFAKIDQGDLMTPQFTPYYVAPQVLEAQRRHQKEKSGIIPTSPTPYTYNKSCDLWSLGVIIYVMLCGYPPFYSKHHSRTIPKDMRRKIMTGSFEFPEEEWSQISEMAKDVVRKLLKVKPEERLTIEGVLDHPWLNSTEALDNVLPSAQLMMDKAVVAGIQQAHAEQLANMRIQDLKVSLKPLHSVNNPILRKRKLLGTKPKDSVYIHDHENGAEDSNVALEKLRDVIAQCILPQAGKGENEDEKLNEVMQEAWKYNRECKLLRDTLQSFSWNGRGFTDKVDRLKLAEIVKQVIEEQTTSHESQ
Chain of UniProt Q13237 (whole entry, looked up): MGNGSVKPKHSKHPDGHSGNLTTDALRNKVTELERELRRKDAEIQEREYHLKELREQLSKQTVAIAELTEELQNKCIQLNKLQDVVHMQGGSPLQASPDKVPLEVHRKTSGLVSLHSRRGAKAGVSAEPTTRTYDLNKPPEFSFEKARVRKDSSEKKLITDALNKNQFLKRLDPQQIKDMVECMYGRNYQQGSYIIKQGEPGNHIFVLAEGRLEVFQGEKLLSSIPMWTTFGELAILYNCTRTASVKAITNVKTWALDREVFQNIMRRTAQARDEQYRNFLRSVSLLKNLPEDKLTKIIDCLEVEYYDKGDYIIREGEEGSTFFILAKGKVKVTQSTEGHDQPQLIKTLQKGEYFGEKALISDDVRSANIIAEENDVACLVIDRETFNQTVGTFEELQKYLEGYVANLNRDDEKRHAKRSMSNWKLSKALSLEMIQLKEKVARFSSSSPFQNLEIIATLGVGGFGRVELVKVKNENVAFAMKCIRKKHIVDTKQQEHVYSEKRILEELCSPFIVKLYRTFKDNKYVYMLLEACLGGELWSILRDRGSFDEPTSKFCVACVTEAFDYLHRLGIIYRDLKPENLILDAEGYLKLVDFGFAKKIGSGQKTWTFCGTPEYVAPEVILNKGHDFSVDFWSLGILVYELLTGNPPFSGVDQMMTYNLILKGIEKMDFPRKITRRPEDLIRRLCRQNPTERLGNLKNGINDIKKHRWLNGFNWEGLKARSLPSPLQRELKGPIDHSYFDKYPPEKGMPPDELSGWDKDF

Study 1
Target: Calcium/calmodulin-dependent protein kinase type II subunit alpha (CAMK2A, Homo sapiens, UniProt Q9UQM7)
Chain of UniProt Q9UQM7 (whole entry, looked up): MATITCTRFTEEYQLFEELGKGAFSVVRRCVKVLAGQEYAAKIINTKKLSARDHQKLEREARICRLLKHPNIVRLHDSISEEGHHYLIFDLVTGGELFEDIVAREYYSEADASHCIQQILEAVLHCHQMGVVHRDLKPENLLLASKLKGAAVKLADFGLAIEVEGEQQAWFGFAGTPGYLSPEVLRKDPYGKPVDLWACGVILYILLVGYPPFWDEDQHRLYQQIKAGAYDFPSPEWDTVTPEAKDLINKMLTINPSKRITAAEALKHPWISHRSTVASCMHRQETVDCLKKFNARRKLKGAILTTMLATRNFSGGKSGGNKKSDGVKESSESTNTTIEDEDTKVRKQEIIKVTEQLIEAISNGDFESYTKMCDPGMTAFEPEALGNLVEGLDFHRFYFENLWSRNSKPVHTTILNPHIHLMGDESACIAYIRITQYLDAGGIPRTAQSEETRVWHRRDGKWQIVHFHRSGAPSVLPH
Read-out: enzyme activity
Mode: inhibitor
Concentration: 10 µM
Measurement: inhibition
CNCC(=O)N[C@@H](CCCNC(=N)N)C(=O)N[C@H](C(=O)N[C@@H](Cc1ccc(O)cc1)C(=O)N[C@H](C(=O)N[C@@H](Cc1cnc[nH]1)C(=O)N1CCC[C@H]1C(=O)N[C@@H](C)C(=O)O)C(C)C)C(C)C: -2%
CC(=O)CC/C=C(\C)CC/C=C(\C)CC/C=C(\C)CCC=C(C)C: -2%
O=C(O)c1cc(/N=N/c2ccc(S(=O)(=O)Nc3ccccn3)cc2)ccc1O: -2%
O=c1[nH]cnc2c1ncn2[C@@H]1O[C@H](CO)[C@@H](O)[C@H]1O: -0.05% and 0.2%
O=C(O)CCCCCCCCC(=O)O: -2%
NC(=O)NC1NC(=O)NC1=O (stereo not drawn): 1%
CC(=O)NC(Cc1c[nH]c2ccccc12)C(=O)O (racemic): -21%
O=C1C[C@@H](c2ccc(O)c(O)c2)Oc2cc(O)cc(O)c21: -7%
CC(CO)C(=O)O (stereo not drawn): 28%
CCCCCCCCCC(O)CC(=O)O (stereo not drawn): 14%

Study 2
SMILES: O=C(Nc1cnn(-c2csc(C(=O)NC3COC3)c2)c1)Nc1ccccc1Cl
Read-out: enzyme activity
Concentration: 5 µM
Baseline: untreated control
Measurement: remaining activity
Serine/threonine-protein kinase ULK1 (ULK1, Homo sapiens, UniProt O75385): 131%
Muscle, skeletal receptor tyrosine-protein kinase (MUSK, Homo sapiens, UniProt O15146): 91.2%
Mitogen-activated protein kinase 15 (MAPK15, Homo sapiens, UniProt Q8TD08): 123%
Cyclin-dependent kinase 5, with p25 (CDK5, Homo sapiens, UniProt Q00535): 101%
Serine/threonine-protein kinase Nek5 (NEK5, Homo sapiens, UniProt Q6P3R8): 107%
Platelet-derived growth factor receptor beta (PDGFRB, Homo sapiens, UniProt P09619): 98.5%
cGMP-dependent protein kinase 2 (PRKG2, Homo sapiens, UniProt Q13237): 97.4%
Serine/threonine-protein kinase 38-like (STK38L, Homo sapiens, UniProt Q9Y2H1): 100%
Interleukin-1 receptor-associated kinase 1 (IRAK1, Homo sapiens, UniProt P51617): 107%
Mitogen-activated protein kinase 3 (MAPK3, Homo sapiens, UniProt P27361): 90.1%

Study 3
Target: Testis-specific serine/threonine-protein kinase 2 (TSSK2, Homo sapiens, UniProt Q96PF2)
Read-out: enzyme activity
Mode: inhibitor
Concentration: 0.5 µM
Baseline: control
Measurement: remaining activity
Construct (Q96PF2 1-358): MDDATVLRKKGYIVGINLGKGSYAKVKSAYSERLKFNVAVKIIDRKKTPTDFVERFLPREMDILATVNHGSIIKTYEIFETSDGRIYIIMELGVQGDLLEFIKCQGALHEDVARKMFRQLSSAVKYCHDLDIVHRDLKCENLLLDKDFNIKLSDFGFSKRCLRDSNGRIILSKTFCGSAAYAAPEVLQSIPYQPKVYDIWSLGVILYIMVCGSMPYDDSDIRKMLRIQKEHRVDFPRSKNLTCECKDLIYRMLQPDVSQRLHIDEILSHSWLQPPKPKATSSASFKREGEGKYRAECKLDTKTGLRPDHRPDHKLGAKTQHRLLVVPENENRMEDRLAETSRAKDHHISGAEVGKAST
Oc1ccc(-c2nc(-c3ccncc3)c(-c3ccc(F)cc3)[nH]2)cc1: 93.1%
O=S(=O)(c1cccc2cnccc12)N1CCCNCC1: 80.2%
Cc1nc(-c2ccccc2)c(-c2ccncc2)o1: 90.1%
Nc1[nH]nc2nc3ccccc3nc12: 110%
CNC(=O)c1cc(Oc2ccc(NC(=O)Nc3ccc(Cl)c(C(F)(F)F)c3)cc2)ccn1: 102%
O=C(O)c1ccc2c3c1cccc3c(=O)n1c3ccccc3nc21: 106%
CN(C)c1ccc(C=C2C(=O)Nc3ccccc32)cc1: 101%
Nc1ccc2ncnc(NCCc3ccc(Oc4ccccc4)cc3)c2c1: 94.5%
Nc1ncnc2n[nH]c(Nc3ccc(F)cc3)c12: 90.8%
O=C1NC(=O)C(c2cn(CCCO)c3ncccc23)=C1c1cnccn1: 119%
COc1ccc(C(=O)Nc2sc3c(c2C(N)=O)CCCC3)cc1OC: 94.6%
O=C(CCCc1ccc(-c2ccccc2F)cc1)Nc1ccc(O)cc1: 115%
Cc1ccc(NC(=O)c2ccc(CN3CCN(C)CC3)cc2)cc1Nc1nc(-c2cccnc2)cs1: 102%
O=c1c2ccccc2[nH]c(=S)n1CCN1CCC(=C(c2ccc(F)cc2)c2ccc(F)cc2)CC1: 101%
COc1ccc(CNC(=O)Nc2ncc([N+](=O)[O-])s2)cc1: 105%
Cn1sc(=O)n(Cc2ccccc2)c1=O: 100%

Study 4
SMILES: O=C(NCCCC1CCCCC1)c1ccc(CNC(=O)c2cnn(-c3ccccc3)c2C(F)(F)F)cc1
Read-out: cell-free assay
Technique: competition with immobilised ligand
Concentration: 0.1 µM
Measurement: remaining binding
Tyrosine-protein kinase ITK/TSK (ITK, Homo sapiens, UniProt Q08881): 100%
Insulin receptor (INSR, Homo sapiens, UniProt P06213): 100%
Mitogen-activated protein kinase kinase kinase 15 (MAP3K15, Homo sapiens, UniProt Q6ZN16): 84%
MAP kinase-activated protein kinase 5 (MAPKAPK5, Homo sapiens, UniProt Q8IW41): 100%
Death-associated protein kinase 1 (DAPK1, Homo sapiens, UniProt P53355): 100%
Fibroblast growth factor receptor 3 (FGFR3, Homo sapiens, UniProt P22607, G697C): 100%

Excerpt of the above (study 4):
Tyrosine-protein kinase ITK/TSK (ITK, Homo sapiens, UniProt Q08881): 100%
Insulin receptor (INSR, Homo sapiens, UniProt P06213): 100%
Mitogen-activated protein kinase kinase kinase 15 (MAP3K15, Homo sapiens, UniProt Q6ZN16): 84%
MAP kinase-activated protein kinase 5 (MAPKAPK5, Homo sapiens, UniProt Q8IW41): 100%
